Assay results gathered from unrelated publications.
Numbered parts are unrelated; each lists some results of a single study.

Block 1
Target: PABPC1L2, full length, GST fusion (mouse, UniProt A0ABA7IW68)
Technique: RNAcompete
Molecule type: RNA
Sample: in vitro
Tested at: 20 nM
Setting: 7-mer, probes averaged, single round
Reference: mean of 7-mers
Direction: higher = stronger binding
Target sequence (chain): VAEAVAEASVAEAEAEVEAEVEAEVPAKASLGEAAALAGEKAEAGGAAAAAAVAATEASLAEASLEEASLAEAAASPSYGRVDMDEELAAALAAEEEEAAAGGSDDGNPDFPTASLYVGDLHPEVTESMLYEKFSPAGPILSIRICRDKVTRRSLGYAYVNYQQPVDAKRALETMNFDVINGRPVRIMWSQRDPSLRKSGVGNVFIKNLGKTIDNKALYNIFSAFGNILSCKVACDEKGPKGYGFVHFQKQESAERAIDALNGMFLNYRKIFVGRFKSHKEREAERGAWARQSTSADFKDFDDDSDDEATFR
Sequence | 7-mer Z-score
AGUUAAU | -0.142
UGAUGAG | -0.177
GCGUCCG | -0.0446
UCAGCAU | -0.209

Block 2
Target: Interferon regulatory factor 5, full length, phosphomimetic (IRF5, Homo sapiens, UniProt Q13568-2, residues 1-514, K96S/S451D/S453D/S456D/S462D)
Technique: protein-binding microarray
Molecule type: double-stranded DNA, one strand shown
Sample: in vitro
Tested at: 250 nM
Setting: 60-bp whole probe
Added: salmon DNA 0.4 mg/ml
Reference: random background probes
Direction: higher = stronger binding
Sequence | log fluorescence [z-score]
GCCTAGCACTTAGAACTGGACACTGGGTTAGTGCTAGTCTTGATTCGCTTGACGCTGCTG | -0.488
GCCTAGCACGACGATCTCAGTTTCGGGACGTGCTAGGTCTTGATTCGCTTGACGCTGCTG | 6.15
GCCTAGCACTCACCTCTCCATACTTCACTGTGCTAGGTCTTGATTCGCTTGACGCTGCTG | -0.0374
GCCTAGCACGATGGACTGCTACTGCTGACGTGCTAGGTCTTGATTCGCTTGACGCTGCTG | -0.485

Block 3
Target: Histone acetyltransferase KAT6A, winged helix 2, GST fusion (KAT6A, Homo sapiens, UniProt Q92794, residues 85-181)
Technique: protein binding microarray
Molecule type: double-stranded DNA, one strand shown
Sample: in vitro
Tested at: not given
Setting: 8-mer, flanks averaged, mean of 2 arrays, mostly near background
Reference: not given
Direction: higher = stronger binding
Residues (chain): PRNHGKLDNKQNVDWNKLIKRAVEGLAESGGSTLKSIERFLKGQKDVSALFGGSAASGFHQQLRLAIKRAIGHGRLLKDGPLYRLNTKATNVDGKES
Sequence | E-score
ACGTCGAG | -0.0503
ACGGTTTG | 0.0335
CTACCGCC | 0.123
CATCTCAC | 0.0234

Mixed results
Substance | target | assay | system | conditions | scale | endpoint | value
PhoQ, residues 284 288 289 292 302 303 NSMLDC | PhoP, residues 12 14 15 18 19 LYHSL (Escherichia coli, UniProt P23836) | Sort-seq, refers to: YFP reporter | E. coli | PhoQ-PhoP variant library, added: 10 µM Mg2+ | reference: high Mg2+ state, higher = stronger signaling | fold induction | 0.813

Excerpt of the above (block 3):
Sequence | E-score
ACGTCGAG | -0.0503
